Experimental data collected from several papers.
Lines come from different studies, so protocols differ.

For `CC(=O)[C@H]1[C@H](C#N)C[C@H]2[C@@H]3CC=C4C[C@@H](O)CC[C@]4(C)[C@H]3CC[C@@]21C`, mRNA level read “increased” (qPCR, item: Oatp2; wild-type mice, liver; 10 mg/kg, 3 days; baseline: vehicle).
For `CC(=O)Nc1c(F)cc(C(=O)N[C@H]2CC[C@H](O)CC2)cc1O[C@@H](C)c1ccccc1`, mRNA level read “no effect” (liver inflammation, qPCR, item: Ccl2 and Cxcl2; mice, APAP liver injury, liver; oral, 30 mg/kg, 12 h, with: APAP 500 mg/kg intraperitoneal).
Under mRNA level, `O=C(NC1Cc2ccccc2C1)c1c(-c2ccc3ccccc3c2)nc2occn12` is recorded as “increased” (inducer, item: Cyp2b10; hCAR transgenic male mice, liver; intraperitoneal, 10 mg/kg, 24 h).
`CSc1ccc(C(=O)/C=C/c2cc(C)c(OC(C)(C)C(=O)O)c(C)c2)cc1` — result for mRNA level: “no effect” (RT-PCR, item: ACADL, CPT1α; db/db mice, MCD diet-fed, liver; 30 mg/kg; baseline: model group).
For `N#Cc1ccc2c(CN3CCOCC3)cc(-c3ccc([C@H]4CCC(=O)N4)cc3)nc2c1`, mRNA level read “no effect” (no effect, item: Tnf; BTBR ob/ob mice, female, diabetic wound model, wound tissue; dose not given, 21 days; baseline: vehicle).
For `CCc1c(C)nc(-c2ccc(Cl)s2)nc1Nc1ccc(CC(=O)O)cc1`, mRNA level read “decreased” (item: PPARα; C57BL/6J mice, high-fat diet, liver; intraperitoneal, 0.3 mg/kg daily, 60% fat diet 12 weeks, dosed last four; baseline: vehicle).
`Cc1cc(/C=C2\Oc3cc(OCC4CC4)ccc3C2=O)cc(C)c1OC(C)(C)C(=O)O`: mRNA level “increased” (RT-PCR, item: PNPLA2, LPL, Apo C-II; db/db mice, MCD diet-fed, liver; 30 mg/kg; baseline: model group).
`C=C1CC[C@H](OCCCNC(=O)CCOCCOCCOCCOCCOCCOCCOCCOCCOCCOCCOCCOCCOCCOCCOCCOCCOCCOCCOCCOCCOCCOCCOCCOCCOCCOCCOCCOCCOCCOCCOCCOCCOCCOCCOCCOCCNC(=O)CCN2C(=O)CC(SC[C@H](NC(=O)[C@H](CCCNC(=N)N)NC(=O)[C@@H]3CCCN3C(=O)[C@H](CCC(N)=O)NC(=O)[C@H](CC(C)C)NC(=O)[C@H](CCCCN)NC(=O)[C@H](C)NC(=O)[C@@H]3CCCN3C(=O)[C@@H]3CCCN3C(=O)[C@H](CCCCN)NC(=O)[C@H](CCCCN)NC(=O)[C@H](CO)NC(=O)[C@H](CCC(=O)O)NC(=O)[C@H](CCCCN)NC(=O)[C@H](CCCNC(=N)N)NC(=O)[C@H](CCC(N)=O)NC(=O)[C@H](CCC(N)=O)NC(=O)[C@@H](NC(=O)[C@H](CCCNC(=N)N)NC(=O)[C@H](CCC(N)=O)NC(=O)[C@H](Cc3c[nH]cn3)NC(=O)[C@H](CCC(=O)O)NC(=O)[C@@H]3CCCN3C(=O)[C@H](CO)NC(=O)[C@H](CC(C)C)NC(=O)[C@H](Cc3ccccc3)NC(=O)[C@H](CNC(=O)CCCCCCC)NC(=O)[C@H](CO)NC(=O)CN)C(C)C)C(=O)O)C2=O)C/C1=C/C=C1\CCC[C@]2(C)[C@@H]([C@H](C)CCCC(C)(C)O)CC[C@@H]12` (some centres unmarked) — result for mRNA level: “decreased” (real-time RT-PCR, item: Il6; mice, LLC tumour-bearing, tibialis anterior; daily or every other day; baseline: tumour-bearing vehicle).
